Assay results pooled from the literature.
A part holds a random share of what one study measured.

Study 1
Target: RING finger protein unkempt homolog, zinc fingers 1-6, GST-SBP tag (UNK, Homo sapiens, UniProt Q9C0B0, residues 30-357)
Sequence of UniProt Q9C0B0 (30-357, looked up): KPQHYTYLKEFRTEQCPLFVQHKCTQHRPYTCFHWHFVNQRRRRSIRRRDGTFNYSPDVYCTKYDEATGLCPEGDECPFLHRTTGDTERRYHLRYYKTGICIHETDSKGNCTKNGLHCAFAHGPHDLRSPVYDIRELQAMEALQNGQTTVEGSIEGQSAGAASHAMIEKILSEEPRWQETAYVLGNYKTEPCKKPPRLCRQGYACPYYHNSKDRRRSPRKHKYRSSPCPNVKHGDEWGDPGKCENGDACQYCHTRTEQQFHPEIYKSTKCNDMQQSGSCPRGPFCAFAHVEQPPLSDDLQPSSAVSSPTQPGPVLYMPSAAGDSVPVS
Method: RNA Bind-n-Seq
Molecule type: RNA
Sample: in vitro
Tested at: not given
Notes: RNA with constant flanks, human-mouse chimeric sites, ends assumed
Relative to: input RNA pool
Reading: higher = stronger binding
Shared flanks, not repeated: GGGAGUUCUACAGUCCGACGAUC … CAACAGAGGAUUGAGCAUCA
Sequence	bound/input enrichment [ratio]
CUGUGACCACAAGAUCCUACCUGAGUGUUCAGAUGGGUUGACUCCCUCUCCUUGCCUGAACCCCCCCCCACUGCCCCUUGAGUCCACAGUGUCGGCUGAGAUGUUGCCUCUGCACGGUUC	0.492
UUUCUACUGCAGCAAACGAUGCUAAGAGUGAAGGAUCCUAAGAAGUCCCUGGAUUUUUAUACGAGGGUUCUUGGACUGACCCUCCUGCAGAAGCUUGACUUCCCUGCUAUGAAGUUCUCG	0.232
AAUUUCCUGUCAUACUUUGUAGCAAGACACAUCAGACUUACAGAGCACCUGGCCACAUUCUAGUUUUGUGUUAUUUCUCAGCUAUGGAUAUGAUCAAAUGAGAACACUGCUUAACUAAUG	0.196
CCAAUCGUGGAGCAGUACUUGAAGACAAAGAAAAAUUCUAAUAAUUUAAUCAUCAAGUACAUUAGCUGCCGGCUGGUGACACUCAUCAUUAUACUGUUAGCGUGUAUCUACCUGGGCUAU	0.402
CCCUCCCCGGGCCACCCACCCCUCCCGGCUCCCCGCCAGAGCAAGGUUUUCUUCUGUUUUCAUAGCAAAUAAGAAAAAUGUUCUACGCACAUUUUGUCCUCAGUAAACGAGGGCCUCUGG	1.92
AUUGUUGAAGCUAACCCACUUUUAGAAGCAUUUGGAAAUGCAAAGACUGUUCGCAACAAUAAUAGCAGUCGAUUUGGAAAAUUUGUAGAAAUUCAUUUCAAUGAAAAGAGUUCGGUUGUU	0.595
CACAGAGCAGCACCUACCUCCUCCUUCUUUCCACACCUGCAAACUCUUUUACUUGGGCUGCAUAGUUAGUGUAAUUACAUCUCAGCUUUGAGGGCUCCUGUGGCAAAUUCCCGGAUUAAA	1.88
AAAGAGAAACUAAAGCAACUAAUAGAGGAAGAGGAUUGCAAAGAGAAUUUCAUAGAGAAACUAGGAUUUUAUUAGCAACAUGAGUUAUAUUCCAGAGCGUCUCAGAAACCCCAGCCAAAC	8.07
AAAGAACCUCUCUCUGAUGAAGAUGAGGACAGUGAUGAUGAUGUUGAACCCAUUUCUGAAUUUCGAUUUGUGCCCAGUGAUAAGUCAGCGUUGGAGGCGAUGUUCACAGCAAUGUGUGAG	0.239
CAGCCUCAGAGCCCUGACUUCCUGGAUAUCACCAACCCUAAAGCGGUAUUAGAAAAUGCAUUGAGAAACUUCGCCUGUCUGACGACUGGAGAUGUGAUUGCUAUCAACUACAAUGAGAAG	0.669
CUUUUUAAGAAGAUAUGUGAUGGGAUCUUUUAUACCCCUCAAUAUUUAAACCCUUCAGUAAUCAGCCUUUUGAAACAUAUGCUGCAGGUGGAUCCCAUGAAGAGGGCCGCAAUAAAAGAU	0.233

Study 2
Target: Hepatocyte nuclear factor 3-alpha (Foxa1, Mus musculus, UniProt P35582, residues 1-468, full length assumed)
Method: EMSA with sequencing
Molecule type: double-stranded DNA, one strand shown
Sample: in vitro
Tested at: 10 and 20 nM
Notes: whole designed probe, mean of two concentrations, ends assumed
Relative to: negative control set to 0
Reading: higher = stronger binding
Shared flanks, not repeated: GTGAGCGGTGCCCATTGATGGGGAAC … TTTCACTGGGATCGTGGGGAC
Target sequence (chain): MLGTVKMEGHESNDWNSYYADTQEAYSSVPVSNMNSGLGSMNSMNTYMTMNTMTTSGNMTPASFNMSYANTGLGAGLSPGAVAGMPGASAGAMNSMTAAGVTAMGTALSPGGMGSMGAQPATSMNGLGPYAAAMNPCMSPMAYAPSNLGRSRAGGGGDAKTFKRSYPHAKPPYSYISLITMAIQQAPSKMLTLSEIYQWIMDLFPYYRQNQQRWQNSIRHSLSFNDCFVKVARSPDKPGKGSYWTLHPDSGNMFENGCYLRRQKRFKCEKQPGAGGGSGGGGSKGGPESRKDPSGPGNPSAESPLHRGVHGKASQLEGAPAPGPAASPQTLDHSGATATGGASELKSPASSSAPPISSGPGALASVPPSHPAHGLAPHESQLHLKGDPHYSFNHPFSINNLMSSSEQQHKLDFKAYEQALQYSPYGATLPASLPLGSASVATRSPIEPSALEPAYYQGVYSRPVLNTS
Sequence	normalised bound fraction [ratio]
CATGTACAAACAAAATATGGGTTGTGTAATTTCAGTAATTCCATGTACAAGTTAAACACTCTGATATTTGCATTTATTGCACAATAAAATGTCGTAAACATGAATGCTAACAATCTTTTTTTTTTTTCCTGAGACGGAGTCTTGCTCTATCGCCCAGGCTGGAGTGCAGCGGCACAATCTCTGCTTACTGCCA	0.346
ACTAAAGACGCTCTGCAATATTCATACCAAGAAGAATCCTTGGAAGAAAAACTAAGGAAACAATTCTAGCTTTCAAATCTAGAGTTGCTGCTAAGTAATCTTAAAGATTTACTCAAGAAGATCCCTGAAATAATTCCTAAAGAAAATGAAAGGTCTTTAGAAACCAGGAAAATAAGTGTTAACTTGAAGTCTG	-0.0279
ATCTTCCCCCTCTTCCTTGCCCCACCAGCTCACCTTCCCGGGTTGTTTACTTTGAGGAAAATAAATAAAGCCGGCATTCGTTAACCCTCTTCTGGCGCAAACTGCCAGAGCAAACAGATGAATCATGGTCCTTTGGCGACGCCAGGCTCCGGGAGAGCAAAGCACCGTGTCAGGGCCATGATCCGGGGTGGCC	0.412
ATCTTCCCCCTCTTCCTTGCCCCACCAGCTCACCTTCCCGGGTTATTTGCAGATAGTATTTATTTTCAAGCCGGCATTCGTTAACCCTCTTCTGGCGCAAACTGCTGTTTGCTCTGGATGAATCATGGTCCTTTGGCGACGCCAGGCTCCGGGAGAGCAAAGCACCGTGTCAGGGCCATGATCCGGGGTGGCC	0.228
TGAAATTTAGGAAAAGTTAATATGAATGAGAGAAAAATAACCAAAAAGAAATAGCAATTATTCCTTACTAATGTTATTTTTCTGCCTGCAAAGTAAACATGGTAAAAGAAATTTTTCACTTTAAGTTATGAAAGTTGACACTATTATCTATAATTTTTACATGTGCCTCTATTATATGTCCTCTAGTCTTTCA	0.401
TATCTGAGAAGTCTGATCCAGAGTTGATGAGCAGATAAAAAATGTTGAAAGGATCCACGCTCTTTCCATCTCTCTGCTTAGTCATCCTCACTGAGATTGCTTTTCTTCAGTTTGTTACTTTTTTTTTTTTTTGAGATCGAGTTTCGCTCTTGTTACCCAGGCTGGAGTGCAATGGGGCGATCTCTGCTCACTG	-0.0404
ATCTTCCCCCTCTTCCTTGCCCCACCAGCTCACCTTCCCGGGTTATTTGCAGATAGGAAAATAAATAAAGCCGGCATTCGTTAACCCTCTTCTGGCGCAAACTGCTGTTTGCTGCCGACTTTGTTTATACAGGTGGCGACGCCAGGCTCCGGGAGAGCAAAGCACCGTGTCAGGGCCATGATCCGGGGTGGCC	0.42
CCCTGATTGCTATGTTCTAGAAAGTTTTAACCGAAAGTACCAGCTTTACATGTGTATGTGAATCAAACATGTAAACATCCACCTCTCTTTGTGTAAACAAGGAAAAATGGCAAAATATTTTCAGAGAATTTTTCTCTCCCATTTAAGTTTGAAGTTTCAACAAGCATATTATACTTTGAGAGAGAAAAGCAAA	0.419

Study 3
Cell line: yeast with cyclin F-Cln2 chimera
Read-out: cell growth
Action: binder
Method: competitive growth deep sequencing
Molecule type: peptide
Tested at: concentration not given
Notes: peptide tiling library
Reading: direction not given
Sequence	growth enrichment score
KPKPVKPVTFSTGIKM	0.0889
DKYDEGLYRFNSLNDL	-0.404
QYQVVDDIVSKLVFDF	0.0305
IQKKLRFEDTLEFVGF	2.73
LRRKLFLDGNGSIS	3.3
VEEEFFALRKRTPSAG	0.444
GLPDFVFQQQPVESEA	0.0472
EPKTLFLGAGDFQF	0.768
ALLRRLQDVANDRGSH	0.426
AKRSLGFLPQPVPL	2.05
KPHVSDEEEEEPPFYH	0.354
ESSTVSEEDYFSSHRD	-0.0159
RDLFDCDFGDLTPLDF	0.0619
RSLKLDGLLEEN	3.34
DVSERGYVILPNDYFE	-0.17
EAAPPTQEAQGETEPT	0.588
CFRCLLFSFSGRSGVE	1.85

Study 4
Target: RNA binding protein fox-1 homolog 2, RRM domain, GST-SBP tag (RBFOX2, Homo sapiens, UniProt O43251-10, residues 100-194)
Method: RNA Bind-n-Seq
Molecule type: RNA
Sample: in vitro
Tested at: 365 nM
Notes: natural RNA segment, single round, ends assumed
Relative to: no-protein control
Reading: higher = stronger binding
Shared flanks, not repeated: GGGAGUUCUACAGUCCGACGAUC … UGGAAUUCUCGGGUGCCAA
Residues (chain): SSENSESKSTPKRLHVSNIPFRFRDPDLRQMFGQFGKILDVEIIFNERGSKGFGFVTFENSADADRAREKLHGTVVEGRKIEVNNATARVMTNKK
Sequence	RBNS enrichment (R)
AGGUAGAGAGUGCUCCUGGUGGCCUGGCAGGUCUGGGCCCUUCUCUCCCUGCCCAGGUUGUCCCUGGAGGGCAGCCCUCACUCCCUUUGGGGGAGAGGCAGACAUUGCUG	0.308
AAAAGCUUCCUAUAGUACAUUGGUAUGGAUUAAAUACAUAAAAUAUUCUAUUAGACUUCAUGCUGUAAAGAGAACAUGUUAUUUUGCCUCUAAACUUUGAUUUAUUGAAG	0.476
UUGCAGAGGUAUGUCAUUGGUUCUUAAACUGUCAAAAAUAAAGAUGUACAAAAACAGACUUAAAAGGCAACUUUUUUCAAUGGUACAGUAUAUUUUAAACACACAGCCUU	0.307
CAGUCAAGGAGAUGAGCGUCCUAAGGCAUGUUGGGAUAGGGUCAGAUGCACCACCCAUGGAGAGGUUUGUCAACACAAAGACAUGGAAGGUUAGAGGUUUGUCAACAAAA	6.48
CAGCUUGGGCCCAGACUCCUCCGCUGUGUAGCAGAUGAGGAAAAUCAGGCCAGAGGACAACAGGCUGGCGUUUUGUUGGGAACUGAAGAGGAAUCUGUUGAACACAGCGA	0.613
AGCCAGGCAGUCUAUCUAUUUACAUGGCAGUAUACUAGAGAAACUCAGGAAGCAAGAGUGUUCAUCACUGUUGUAAUUUCAAAUGCUCCUUGUGAUUUCUGGCAUCUCUG	0.365
AUCAGGUUAUUUCCUAAUGUAAGAAUAGCUAAAAUGUUGCAGAGAAAUAAGUGACCCAACAAAAUUUAUUCAUCUGUUAUGGGUAAGAUCUGCCAUAAAUUCUUCCUAAA	0.535
GCCCUUGCCCUUGGAGCUGCCGUGCCUGUGUCCUGAUGGCCCAAAUGUCAGGGUUCUGCUCGGCUUCUUGGACCUUGGCGCUUAGUCCCCAUCCCGGGUUUGGCUGAGCC	0.481
UGUGCUCCUAGGCAUCCAGCACAGGUUCUGGCAGGGCACCCCUGCUGGGGUUGGGGGCUGGUCUGUGCAUAAUCCUGGACUGUGAUGGGAACAGCCCAGUGCAGUCUAAA	0.367
CCACCACAGAAAAGCACAAACCUCUGGGAAAGACAACGUCUCUCGGGGGCCAGGGGUCAUCGGUUUGACCCCUGACCUAUAAGCCAAGAUACCCCAUAAACACACUCAGA	0.457
GAAAAUUGAUGGGGUUUAAAGCUACAGAGGCACUGACCUUUUUCUAGUUAUUGUAUUGCUACAAUUUAAAUAUUAAAACAAAUAAGAGCUUUCUCAACAAAUUAGUCCAU	0.388
GCCAUACAGCCGAGCUGGUAUUUUGACCCGCAGCAGCUCGGGCCUAAAUGGAAAUUGAAGACGUAAAGAAGAGCUUUCUUUUCCAAGAGACUCUGGUCUUGGCUAUGCUG	0.719

Some of these lines once more (study 1):
Sequence	bound/input enrichment [ratio]
AAAGAGAAACUAAAGCAACUAAUAGAGGAAGAGGAUUGCAAAGAGAAUUUCAUAGAGAAACUAGGAUUUUAUUAGCAACAUGAGUUAUAUUCCAGAGCGUCUCAGAAACCCCAGCCAAAC	8.07
AAAGAACCUCUCUCUGAUGAAGAUGAGGACAGUGAUGAUGAUGUUGAACCCAUUUCUGAAUUUCGAUUUGUGCCCAGUGAUAAGUCAGCGUUGGAGGCGAUGUUCACAGCAAUGUGUGAG	0.239
CAGCCUCAGAGCCCUGACUUCCUGGAUAUCACCAACCCUAAAGCGGUAUUAGAAAAUGCAUUGAGAAACUUCGCCUGUCUGACGACUGGAGAUGUGAUUGCUAUCAACUACAAUGAGAAG	0.669
